Measurements from different studies.
Parts stem from different laboratories: compare values within a part only. Changes are numbered by the printed parent chain.

Sample 1 — technique: universal PBM; molecule type: double-stranded DNA, one strand shown; matrix: in vitro; concentration: not given; reading: higher = stronger binding
Target: Sal-like protein 4, full length isoform B (SALL4, Homo sapiens, UniProt Q9UJQ4-2, residues 1-616)
Notes: 8-mer, flanks averaged, mean of replicates
`CCCAGACG` has an E-score of -0.232.
`ACCTATCT` has an E-score of 0.0959.
`AACCGAAT` has an E-score of 0.16.
`GCCCTTAA` gave an E-score of 0.0043.
`CTCATGCA` has an E-score of 0.0848.
The E-score of `CATAGACC` is reported as 0.0115.
With `CGATTGCG` the E-score was -0.202.
The E-score of `GCAACCCA` is reported as -0.0692.
With `AAACGAAT` the E-score was 0.233.
The E-score of `CTAATCGA` is reported as -0.0439.
With `ATCCCAGC` the E-score was -0.14.
`AAGGTTCG` gave an E-score of -0.154.
For `CTTGGCCA`, the E-score was -0.179.
The E-score of `GCGAATAC` is reported as -0.0224.
With `CTGGTAAC` the E-score was -0.127.
`CGTACCCA` has an E-score of -0.132.

Sample 2 — target: CCNA2, cyclin fold, Cln2 fusion (human); technique: yeast growth competition, sequencing; matrix: yeast; notes: strong parent motif; baseline: not given; reading: higher = stronger binding
Starting sequence: BRCA2 docking peptide (human); CKKRRALDFLSRL
For `CKKRRALDFASRL [L10A]`, “normalised enrichment score” read 1.83.
`CKKRKALDFLSRL [R5K]` — result for “normalised enrichment score”: 1.55.
`CKKRAAADFLSRL [R5A L7A]`: “normalised enrichment score” 1.97.
Under “normalised enrichment score”, `CKKRKALDLLSRL [R5K F9L]` is recorded as 1.68.
For `CKKRRALDFLSAL [R12A]`, “normalised enrichment score” read 3.38.
Under “normalised enrichment score”, `CKARRALDFLSRL [K3A]` is recorded as 3.5.
`CKKRRALDALSRL [F9A]`: “normalised enrichment score” 1.79.
Under “normalised enrichment score”, `CKKRAALDFLSRL [R5A]` is recorded as 2.67.
`CKKRRALDFLARL [S11A]` — result for “normalised enrichment score”: 2.11.

Sample 3 — technique: RNA Bind-n-Seq; molecule type: RNA; matrix: in vitro; concentration: 365 nM; baseline: no-protein control; reading: higher = stronger binding
Target: RNA binding protein fox-1 homolog 2, RRM domain, GST-SBP tag (RBFOX2, Homo sapiens, UniProt O43251-10, residues 100-194)
Notes: natural RNA segment, single round, ends assumed
All sequences stand within: GGGAGUUCUACAGUCCGACGAUC … UGGAAUUCUCGGGUGCCAA
`UCUUAUUUUUGUGGGGUUUUUUUCUCUCUUUUUUUUUAAAUGACUGAAAUUCACUGAAGAAAAAUAUGUGAAGGACCUUCACUCUGAGAUGUUAUAUUUUUUUUUAAAAA`: “RBNS enrichment (R)” 0.421.
`ACACACUUUCUCAUGACUUUUAAGAACUGUAGUAAUGUGGCUUAGGAAAUAUAAUGGCCUAAUUGUUUUCAAAAUGUAAGUUCCUGUGAAGAAUUUUGUUUAUAUUGGGU`: “RBNS enrichment (R)” 0.684.
`AAUGAAAGAAAGGAAUUGUAUUUACCUUUUAUAAUUAUUAUUAGUGUGGGUAUGGCUAAUGAGUUCUGAUUCACCCACGAAGGUUACAUUUAUGCUGAAUACAUUUGUAA`: “RBNS enrichment (R)” 0.637.
`GGGGCAGGAGGAGGGGCUGCUCUCUGAGACAGGGGCGCCCCCGCCUUGACCCCUGGGCACCUCCAUCCCCUCCCACCUGUCCCCAGAUCAGUCUCUGGGAUGGAGGCCAG`: “RBNS enrichment (R)” 3.81.
For `CUCCUUAAUUCUGAGAGCAUGAAUAUUUGACCUUAAAUCUCCAGUGACUCAGAGCUUCACCCACAAACUCAGGAGAACAUAAGCCUGCUCGUAAAGCUCAAUCCUUCUAU`, “RBNS enrichment (R)” read 1.29.
`GCUGCUUCUUCAGUUCCUAAUACCAGACCAAGCCUCCUGAUGCCUUUCUGCACUGCAACUGUGUGAUUGAAAAAUGAGAUGUUCAUCCAAGCAGUCAAGCCACAGAAACC` — result for “RBNS enrichment (R)”: 0.509.
`CUCGUGUGGUUAGAUCCCAGGCUCUCUGCUCACCUGUAGAUCGCAGAUCCUGCUGGAGGGUGGUUCUCUUUAGCACUGUCCACUUUGAAUGCCGAGUGUCAUAAGAAAUU` — result for “RBNS enrichment (R)”: 0.509.
`ACUCAGUGGCUAAGAGAAUUGGCUGUUCUUCCAGAGGACCCAGGUUUGAUUCCUAGCAGCACAUAGAGGCUAAACCACCUGUAACUCUAGUCUCAGGGGCUCCAACAUCC`: “RBNS enrichment (R)” 0.757.
Under “RBNS enrichment (R)”, `CGCUUGGGAAACGGGCAGUGGUAGUGGGGCGCCAGCUUGAGCUUUCCUGGCACCUGUAGCAUCGAGUGUCUUCUUUGUCUUCUCUCCUCACCCAACUCCCUCUGCCUCUC` is recorded as 1.06.
`UUGUGUUUUAGGUUAAGUAGUCAAUGCCCACAUCACUUCACUGUCUCAAGACUGAGCACUUCACUAAAUGGUAGAUUUUACUGUUAAAGACCCUACAAUAAGAUUGUUUU` — result for “RBNS enrichment (R)”: 0.536.
`GUUGUGGGGUGGUAGUGUGAAUGGCUUGAGGAGGCCUAAUGGCAGGGGCUCUGCUGAAGUGGCCUUCCACUGGAGUCUUGUUCUCAACAGUCCCUUGUGCCAGGUCAGCU` — result for “RBNS enrichment (R)”: 0.362.
`CAAGGCCAGUCUGAACCUGAGGUUGCUUUAUCCUAAAAGUUUUAACCUCAGGUUCCAAAUUCAGUAAAUUUUGGAAACAGUACAGCUAUUUCUCAUCAAUUCUCUAUCAU` — result for “RBNS enrichment (R)”: 0.371.

Sample 4 — target: NFE2L1, bZIP domain (human); technique: DHFR protein complementation; matrix: yeast; baseline: wild-type JUN-FOS pair; reading: higher = stronger binding
Notes: single substitutions, most at no-binding floor
Starting sequence: JUN, bZIP domain (human); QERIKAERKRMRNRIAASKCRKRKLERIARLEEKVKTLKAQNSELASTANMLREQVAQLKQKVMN; partner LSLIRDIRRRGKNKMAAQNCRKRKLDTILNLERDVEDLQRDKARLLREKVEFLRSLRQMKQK
The binding fitness of `Q55C` is reported as -1.39 natural log.
With `E54K` the binding fitness was -1.43 natural log.
The binding fitness of `V56E` is reported as -1.57 natural log.
For `T48Q`, the binding fitness was -1.52 natural log.
`N42H` has a binding fitness of -1.24 natural log.
`V56R` gave a binding fitness of -1.2 natural log.
For `S43L`, the binding fitness was -1.37 natural log.
`R30L` gave a binding fitness of -1.29 natural log.
`I28H` has a binding fitness of -1.43 natural log.
`L31A` gave a binding fitness of -1.46 natural log.
`L45N` gave a binding fitness of -1.49 natural log.
`T48H` gave a binding fitness of -1.47 natural log.
The binding fitness of `R53D` is reported as -1.51 natural log.
`V35D` has a binding fitness of -1.47 natural log.
The binding fitness of `S43D` is reported as -1.58 natural log.
`M51A` has a binding fitness of -1.42 natural log.
The binding fitness of `A49Q` is reported as -1.67 natural log.
`A29V` gave a binding fitness of -1.44 natural log.
The binding fitness of `Q41M` is reported as -1.49 natural log.
`E32H` gave a binding fitness of -1.48 natural log.
For `L38D`, the binding fitness was -1.53 natural log.
The binding fitness of `K39G` is reported as -1.43 natural log.
`L52P` gave a binding fitness of -1.54 natural log.
`S43W` has a binding fitness of -1.48 natural log.
`L31H` gave a binding fitness of -1.5 natural log.

Sample 5 — technique: aptamer microarray, sandwich; molecule type: DNA with 2'F-ANA; matrix: in vitro; concentration: 200 nM; together with: Cy3 exosite-II aptamer, 400 nM; reading: higher = stronger binding; sequence: GGTTGGTGTGGTTGG
Target: Prothrombin, mature alpha-thrombin (F2, Homo sapiens, UniProt P00734)
Notes: whole 15-mer aptamer, many near background
`2'F-ANA at 5 6 8 10 12 13 14`: “mean fluorescence intensity” 70.3 a.u.
Under “mean fluorescence intensity”, `2'F-ANA at 1 5 6 7 8 10 12 13` is recorded as 47.7 a.u.
Under “mean fluorescence intensity”, `2'F-ANA at 1 3 4 6 8 9` is recorded as 222 a.u.
`2'F-ANA at 3 4 5 6 11 14` — result for “mean fluorescence intensity”: 52 a.u.
`2'F-ANA at 1 2 3 5 8 10 14` — result for “mean fluorescence intensity”: 50.6 a.u.
`2'F-ANA at 2 4 7 8 10 13 14 15` — result for “mean fluorescence intensity”: 62.7 a.u.
`2'F-ANA at 3 6 7 8 9 10 12 13 14 15`: “mean fluorescence intensity” 399 a.u.
Under “mean fluorescence intensity”, `2'F-ANA at 1 3 7 8 9 12` is recorded as 614 a.u.
For `2'F-ANA at 1 2 4 5 6 7 11 15`, “mean fluorescence intensity” read 55.5 a.u.
`2'F-ANA at 1 4 5 6 8 9 11`: “mean fluorescence intensity” 55.3 a.u.
`2'F-ANA at 2 4 6 7 8 9 10 11 12 14 15`: “mean fluorescence intensity” 130 a.u.
For `2'F-ANA at 1 3 8 12 13 14 15`, “mean fluorescence intensity” read 128 a.u.
`2'F-ANA at 3 6 7 8 10 11 12 14` — result for “mean fluorescence intensity”: 367 a.u.
`2'F-ANA at 1 2 5 7 8 9 11 12 14 15`: “mean fluorescence intensity” 48.5 a.u.
`2'F-ANA at 9 11 12 14 15`: “mean fluorescence intensity” 205 a.u.
For `2'F-ANA at 1 2 3 4 5 7 9 10 11 13 15`, “mean fluorescence intensity” read 65.8 a.u.
Under “mean fluorescence intensity”, `2'F-ANA at 1 4 5 6 7 9 10 13 14` is recorded as 47.1 a.u.
`2'F-ANA at 1 3 4 6 7 9 11 13`: “mean fluorescence intensity” 105 a.u.
For `2'F-ANA at 1 2 3 7 8 9 10 12 15`, “mean fluorescence intensity” read 97.5 a.u.
For `2'F-ANA at 1 2 3 5 6 11 12 14 15`, “mean fluorescence intensity” read 47.4 a.u.
`2'F-ANA at 3 8 11 13 15` — result for “mean fluorescence intensity”: 785 a.u.
`2'F-ANA at 6 8 9 13 15`: “mean fluorescence intensity” 330 a.u.
`2'F-ANA at 3 7 8 10 12 13 14 15`: “mean fluorescence intensity” 403 a.u.
For `2'F-ANA at 1 2 3 5 6 13`, “mean fluorescence intensity” read 50.1 a.u.
`2'F-ANA at 2 3 4 5 7 8 12 13` — result for “mean fluorescence intensity”: 131 a.u.

Sample 6 — technique: protein binding microarray; molecule type: double-stranded DNA, one strand shown; matrix: in vitro; concentration: not given; baseline: not given; reading: higher = stronger binding
Target: Histone acetyltransferase KAT6A, winged helix 1, GST fusion (KAT6A, Homo sapiens, UniProt Q92794, residues 1-85)
Notes: 8-mer, flanks averaged, mean of 2 arrays, mostly near background
Construct (chain): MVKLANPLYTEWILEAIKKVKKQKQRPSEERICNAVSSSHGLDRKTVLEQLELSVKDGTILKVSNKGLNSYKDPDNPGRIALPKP
`ACCCGGGC` has an E-score of 0.315.
With `AGTGAGCG` the E-score was -0.0317.
`ACAGCCAG` has an E-score of -0.116.
`GCCTTAGC` has an E-score of 0.0035.
For `ATAGAGAC`, the E-score was -0.178.
`ACGCCAAA` has an E-score of -0.0726.
With `ATCCAAAA` the E-score was -0.102.
`ACGGATCG` has an E-score of 0.225.
The E-score of `CGGAAAGA` is reported as 0.174.
With `AATCTGCA` the E-score was -0.214.
`TACTCGGA` has an E-score of -0.0316.
For `CGGTGTTA`, the E-score was 0.157.
With `AAACATGC` the E-score was 0.0745.
`GCTTTTAC` has an E-score of 0.125.
`CTAGCCGC` has an E-score of 0.356.
With `GATCCTCA` the E-score was -0.122.
For `TCAAGAGA`, the E-score was -0.19.
`CCGCTGAG` gave an E-score of 0.18.
The E-score of `AACACGGC` is reported as 0.346.
The E-score of `AGCAGTAC` is reported as -0.00292.
The E-score of `GGGATTAA` is reported as 0.00701.
`CTACTGAA` has an E-score of -0.0705.
The E-score of `CCCGGTAC` is reported as 0.185.
`AATAAAAA` has an E-score of -0.017.
For `ACCCAGGA`, the E-score was -0.181.
